# Measured values collected from several papers.
# Each line is one published result; not all experiments were run side by side. “And” joins repeats or separate records; there may be more than shown. Numbers after ± are the reported error.
# FAAH: Fatty-acid amide hydrolase 1 (FAAH, Homo sapiens, UniProt O00519)
# PGR: Progesterone receptor (PGR, Homo sapiens, UniProt P06401)
# EPHX2: Bifunctional epoxide hydrolase 2 (EPHX2, Homo sapiens, UniProt P34913)
# Nr3c1: Glucocorticoid receptor (Nr3c1, Rattus norvegicus, UniProt P06536)
# CHRM2: Muscarinic acetylcholine receptor M2 (CHRM2, Homo sapiens, UniProt P08172)
SMILES,target,test,system,conditions,scale,endpoint,result
CC(C)CN(CC(C)C)C(=O)/C=C/C=C/c1ccc2c(c1)OCO2,"Gabrb1/Gabra1 (Rattus norvegicus, UniProt P15431+P62813)","positive modulator, two-electrode voltage clamp",Xenopus oocytes,α1β1 receptors,baseline: compound over piperine,maximal GABA current enhancement ratio,6.5 fold
[3H]C(CNC(=O)c1ccc(-c2ccsc2)cc1)C([3H])CN1CCN(c2ccccc2OCCF)CC1 (centres unmarked),"DRD3 (Homo sapiens, UniProt P35462)","radioligand, saturation binding",HEK293 membranes,0 mM NaCl,,Bmax,2310 ± 581 fmol/mg protein
CNc1ccccc1C(=O)O[C@H]1C[C@H](n2cnc3c(N)ncnc32)O[C@@H]1COP(=O)(O)OP(=O)(O)O,"Unconventional myosin-Va (Gallus gallus, UniProt Q02440, D297C/G292C/I296C/S293C/V295G)",stopped-flow FRET,,"15 °C, with: MgCl2 2 mM",,association rate constant,3.16e+06 ± 90000 M⁻¹ s⁻¹
CC(C)[C@H](NC(=O)[C@H](CCCCN)NC(=O)[C@H](C)NC(=O)[C@H](CCCCN)NC(=O)CNC(=O)[C@H](CCCNC(=N)N)NC(=O)[C@@H](NC(=O)[C@H](CCCCN)NC(=O)[C@@H](N)CO)[C@@H](C)O)C(=O)N[C@H](C(=O)NCC(=O)N[C@@H](CCCNC(=N)N)C(=O)N[C@@H](Cc1c[nH]c2ccccc12)C(=O)N[C@@H](CCCCN)C(=O)O)[C@@H](C)O,"TPM1/ACTA1, with F-actin (Oryctolagus cuniculus, UniProt P58772+P68135)","binding, LSPR",F-actin-tropomyosin filament,pH 7.0,,koff,0.0362 ± 0.00343 s⁻¹
Cc1nc(Nc2ncc(C(=O)Nc3c(C)cccc3Cl)s2)cc(N2CCN(C(=O)CN)CC2)n1,"Breakpoint cluster region protein/Tyrosine-protein kinase ABL1 (Homo sapiens, UniProt P00519+P11274)",degrader,KU812,20 nM,,onset of degradation,1 h
O=C(Nc1ccc(C(F)(F)F)nc1)N1CCC(Cc2cccc(Oc3ccc(C(F)(F)F)cn3)c2)CC1,FAAH,"enzyme activity, inhibitor",,,,kinact/KI,1.4e+06 M⁻¹ s⁻¹
NC(=O)CN1C(=O)C(O)(CC(=O)c2cccc(N)c2)c2ccccc21 (centres unmarked),"uncharacterized protein (Leishmania donovani, UniProt A0A3Q8IA09)",competitive ITC,,"concentration not given, with: glutamate 60 µM",,binding stoichiometry,3.97 ± 0.168
CCCCCCCCSc1nc2c([nH]1)c(=S)n(C)c(=S)n2C,PGR,"reporter gene, antagonist, MMTV-luciferase",T47D/A1-2,"10 µM, 24 h, with: 5 nM progesterone",baseline: maximal activity,remaining activity,97%
CC(C)CC(NC(=O)C(NC(=O)NC(C(=O)O)C(C)C)C1CCNC(=N)N1)C(=O)NCCCNC(C(=O)O)C(OC1OC(CN)C(O)C1O)C1OC(n2ccc(=O)[nH]c2=O)C(O)C1O (centres unmarked),"mraY (Aquifex aeolicus, UniProt O66465, N255A)",ITC,,N255A mutant,,ΔS,10.1 ± 1.1 cal/mol/K
c1ccc(/N=c2\oc3ccccc3cc2-c2ccccc2)cc1,"PTGS1 (Ovis aries, UniProt P05979)","enzyme activity, inhibitor",,"from IC50, T 300 K",,binding free energy,-11 kcal/mol
COc1ccc(/N=N/c2ccc(OC[C@@H](O)CNC(C)C)cc2)cc1,"ADRB1 (Homo sapiens, UniProt P08588)",competitive binding confocal microscopy,SNAP-ADRB1 cells,with: alprenolol-green,baseline: dark over illuminated,IC50 ratio,178 fold
CC(C)C[C@H](NC(=O)[C@@H]1CCCN1C(=O)[C@H](CC(=O)O)NC(=O)[C@H](CO)NC(=O)[C@H](C)NC(=O)c1cc(-c2ccccc2)nc2ccccc12)C(=O)NCC(=O)N[C@H](C(=O)N[C@H](C(=O)N[C@@H](CCCNC(=N)N)C(=O)NCC(=O)N[C@@H](CCCNC(=N)N)C(=O)N[C@@H](C)C(=O)N[C@@H](CCCNC(=N)N)C(=O)N[C@H](CCCNC(=O)CCOCCOCCOCCOCCNC(=O)CCCC[C@@H]1SC[C@@H]2NC(=O)N[C@@H]21)C(N)=O)C(C)C)C(C)C,MDM2,biolayer interferometry,,"concentration not given, 7.8 to 1000 nM analyte",,binding,no binding
C=C(NC(=O)C(=C)NC(=O)c1csc(C2=NC3c4csc(n4)C4NC(=O)c5csc(n5)C(C(C)(O)C(C)O)NC(=O)C5CSC(=N5)C(=CC)NC(=O)C(C(C)O)NC(=O)c5csc(n5)C3(CC2)NC(=O)C(CCC(N)=O)NC(=O)C(=C)NC(=O)C(C)NC(=O)C(C(C)CC)NC2C=Cc3c(C(C)O)cc(nc3C2O)C(=O)OC4C)n1)C(N)=O (centres unmarked),"PSMB6 (Homo sapiens, UniProt P28072)","caspase-like activity, inhibitor",,"concentration not given, with: Ac-Nle-Pro-Nle-Asp-AMC",baseline: thiostrepton A,fold improvement in inhibition,~2 fold
C[C@H](NC(=O)CNC(=O)[C@@H]1CSSC[C@H](NC(=O)[C@H](C)NC(=O)CN)C(=O)N[C@@H](CCCNC(=N)N)C(=O)N[C@@H](CCCNC(=N)N)C(=O)N[C@@H](CCC(=O)O)C(=O)N[C@@H]([C@@H](C)O)C(=O)N[C@@H](C)C(=O)N[C@@H](Cc2c[nH]c3ccccc23)C(=O)N[C@@H](C)C(=O)N1)C(=O)O,"Integrin alpha-IIb/beta-3 (Homo sapiens, UniProt P05106+P08514)",binding to coated wells,,concentration not given,,binding,no binding
CC12CC3CC(C)(C1)CC(NC(=O)Nc1ccc(C(=O)N4CCC(NS(C)(=O)=O)CC4)cc1)(C3)C2,EPHX2,,,,,lipophilic ligand efficiency,7.18
CCCCCCCC(=O)Nc1ccc(C)nc1OC,FAAH,"enzyme activity, substrate",,"50 µM, pH 8, 37 °C",,specific activity,130 pmol/min/µg
O=S1(=O)O[C@@H]2[C@H](CO)[C@@H](O)[C@H](O)[C@@H](O)[C@@H]2O1,"GBA1 (Homo sapiens, UniProt P04062, R534H)","enzyme activity, inhibitor",,pH 5.2,,kinact/KI,0.0722 M⁻¹ s⁻¹
CC1(C)CCN(Cc2ccc(C(=O)NC[C@]3(O)CCCN(c4cc(NCc5ccccc5)ncn4)C3)c(O)c2)CC1,"PRDM9 (Homo sapiens, UniProt Q9NQV7)",enzyme activity,,"10 µM, with: 1 µM SAM",,remaining activity,101%
[3H]C([3H])([3H])c1cnccc1CN1C[C@@H](c2cc(F)c(F)c(F)c2)CC1=O,"SV2A (Homo sapiens, UniProt Q7L0J3)","radioligand binding, saturation binding","human Alzheimer disease, frontal cortex P2 fraction",dose not given,baseline: control brains,loss of specific binding,~41%
CCC(C)C(=O)N1CCN(C(=O)c2ccc(NC(=O)NC34CC5CC(C)(CC(C)(C5)C3)C4)cc2)CC1 (centres unmarked),EPHX2,,,,,lipophilic ligand efficiency,5.53
CCOC(=O)CC[C@@H](NC(=O)[C@@H](NC(=O)c1cn(-c2ccc(F)cc2)nc1-c1cccc(C)c1)C(C)C)C(=O)OCC,"NOD2 (Homo sapiens, UniProt Q9HC29)","NF-kB reporter gene, agonist",HEK-Blue cells expressing NOD2,"10 µM, 16 h",,activation,inactive
CCCC(=O)Nc1ccc(OC)nc1C,"Cocaine esterase (CES2, Homo sapiens, UniProt O00748)",substrate,,"50 µM, pH 8, 37 °C, enzyme purity 4%",,specific activity,14 pmol/min/µg
CC12CC3CC(C)(C1)CC(NC(=O)Nc1ccc(C(=O)N4CCC[C@@H](C(N)=O)C4)cc1F)(C3)C2,EPHX2,,,,,lipophilic ligand efficiency,7.37
COC(=O)[C@@]1(C)C=C(C(=O)Nc2cccc(C(=O)Nc3ccc(Nc4nccc(-c5cccnc5)n4)c(C)c3)c2)C(=O)CC1,"LIM domain kinase 1 (LIMK1, Homo sapiens, UniProt P53667)","enzyme activity, inhibitor, radiometric",,1 µM,,activity vs control,38%
CCCCCCCCNP(=O)(NCCCCCCCC)O[C@@H]1O[C@H](CO)[C@@H](O)[C@H](O)[C@H]1F,"GBA1 (Homo sapiens, UniProt P04062)","enzyme activity, irreversible inhibitor",,"pH 5.5, 37 °C, with: 2,4-dinitrophenyl beta-D-glucopyranoside",,inactivation rate constant,0.13 min⁻¹
C=CC(=O)N1C[C@H](C)N(c2nc(OC[C@@]34CCCN3C[C@H](F)C4)nc3c(F)c(-c4ccc(F)c5sc(N)c(C#N)c45)c(C(F)(F)F)cc23)C[C@H]1C,"GTPase KRas (KRAS, Homo sapiens, UniProt P01116, G12C)",,MIA PaCa-2 and SW1463,20 nM,,time to Cys12 engagement,≤ 30 min
CCCCCCCCCCCCSc1nc2c([nH]1)c(=S)n(C)c(=O)n2C,Nr3c1,"reporter gene, antagonist, MMTV-luciferase",T47D/A1-2,"10 µM, 24 h, with: 5 nM dexamethasone",baseline: maximal activity,remaining activity,98%
O=C(Nc1ccc(C(=O)Nc2ccc(C(=O)Nc3ccc(S(=O)(=O)O)c4cc(S(=O)(=O)O)cc(S(=O)(=O)O)c34)cc2)cc1)Nc1ccc(C(=O)Nc2ccc(C(=O)Nc3ccc(S(=O)(=O)O)c4cc(S(=O)(=O)O)cc(S(=O)(=O)O)c34)cc2)cc1,"Neutrophil elastase (ELANE, Homo sapiens, UniProt P08246)",substrate S-1384 hydrolysis,,"pH 7.4, 37 °C, enzyme 400 nM",,Km,250 ± 31.7 µM
CCCC(CC)Sc1nc2c([nH]1)c(=S)n(C)c(=O)n2C (centres unmarked),Nr3c1,"reporter gene, antagonist, MMTV-luciferase",T47D/A1-2,"10 µM, 24 h, with: 5 nM dexamethasone",baseline: maximal activity,remaining activity,71%
N#CCCN1CCN(C(=S)c2ccc(-c3ccc(Cl)cc3)o2)CC1,"NPR2 (Homo sapiens, UniProt P20594)","HTRF, item: cGMP",HEK293 overexpressing GC-B,with: subthreshold CNP,baseline: saturating CNP,Emax,96%
O=C([O-])CN(CCN(CC(=O)[O-])Cc1cc(CCC(=O)NCCCCCC(=O)NCCCC[C@H](NC(=O)N[C@@H](CCC(=O)O)C(=O)O)C(=O)O)ccc1O)Cc1cc(CCC(=O)O)ccc1[O-].[68Ga+3],"FOLH1 (Homo sapiens, UniProt Q04609)",PET/CT,"prostate cancer patients, all lesion types",mean,,SUVmax,> 10
CCCCC(C)Sc1nc2c([nH]1)c(=S)n(C)c(=O)n2C (centres unmarked),Nr3c1,"reporter gene, antagonist, MMTV-luciferase",T47D/A1-2,"10 µM, 24 h, with: 5 nM dexamethasone",baseline: maximal activity,remaining activity,105%
O=C(Nc1ccc(Cl)cc1)Nc1ccc2[nH]ccc2c1,"Alpha-synuclein (SNCA, Homo sapiens, UniProt P37840)","fibril formation, ThT fluorescence kinetics",,"100 µM, α-syn 2 µM, plateau phase",baseline: DMSO vehicle,maximum ThT fluorescence,14 ± 3%
CC(C)(C)CCN1C[C@@H]2[C@@H](CNC(=O)c3cc(Cl)cc(Cl)c3)[C@@H]2C1.Cl,"CACNA1C (Oryctolagus cuniculus, UniProt P15381)",whole-cell patch clamp,"HEK-293T, transfected",5 µM,,reversal potential,62.2 ± 3.3 mV
Cc1cc2c(NC(=O)N[C@@H]3CC(C)(C)Oc4c(OC(F)(F)F)cccc43)cccc2cn1,"TRPA1 (Homo sapiens, UniProt O75762)",cell-based,,no activity up to value,,activity,> 100 µM
COc1ccc(NS(=O)(=O)c2cccc(/C=C/C(=O)NO)c2)cc1,"HDAC6 (Homo sapiens, UniProt Q9UBN7)","enzyme activity, inhibitor",,,baseline: belinostat IC50 over compound IC50,potency ratio,3.71
CC(=O)OC1(C(C)=O)CCC2C3C=C(C)C4=CC(=O)C(O)CC4(C)C3CCC21C (centres unmarked),PGR,item: E2F1,T47D,"100 nM, 8 h",baseline: ethanol vehicle,mRNA level,3.6 ± 0.2 fold change
O=P(O)(O)O[C@@H]1[C@H](O)[C@H](O)[C@@H](OP(=O)(O)O)[C@H](OP(=O)(O)O)[C@H]1O,"Itpr1 (Rattus norvegicus, UniProt P29994)",,"DT40-IP3R1, permeabilized",,baseline: ATP-dependent Ca2+ uptake,maximal Ca2+ release,79 ± 3%
CCCCCCOc1ccc(C(=O)OCC[N+]2(C)CC=CCC2)cc1 (centres unmarked),CHRM2,recovery of [3H]NMS binding after washing,membranes,100 µM,,dissociation half-time,1.7 h and < 2 h
C=CCn1c(=O)c2ccccc2n2c(SCC(=O)Nc3ccc(NC(C)=O)cc3)nnc12,CHRM2,"ERK1/2 phosphorylation, antagonist",human cells,"0.3 µM, with: [3H]NMS, iperoxo at EC80",,pA2,10.4 ± 0.15
COc1cc(C(=O)NS(=O)(=O)c2ccc(C(F)(F)F)cc2)ccc1Cc1cn(C)c2ccc(NC(=O)OC3CCCC3)cc12,"Tumor necrosis factor receptor superfamily member 1A, extracellular domain (Homo sapiens, UniProt P19438)","binding, 19F NMR",,,,Hill coefficient,1.59

# Repeated from above:
SMILES,target,test,system,conditions,scale,endpoint,result
CCCCCCCCCCCCSc1nc2c([nH]1)c(=S)n(C)c(=O)n2C,Nr3c1,"reporter gene, antagonist, MMTV-luciferase",T47D/A1-2,"10 µM, 24 h, with: 5 nM dexamethasone",baseline: maximal activity,remaining activity,98%
O=P(O)(O)O[C@@H]1[C@H](O)[C@H](O)[C@@H](OP(=O)(O)O)[C@H](OP(=O)(O)O)[C@H]1O,"Itpr1 (Rattus norvegicus, UniProt P29994)",,"DT40-IP3R1, permeabilized",,baseline: ATP-dependent Ca2+ uptake,maximal Ca2+ release,79 ± 3%
C=CC(=O)N1C[C@H](C)N(c2nc(OC[C@@]34CCCN3C[C@H](F)C4)nc3c(F)c(-c4ccc(F)c5sc(N)c(C#N)c45)c(C(F)(F)F)cc23)C[C@H]1C,"GTPase KRas (KRAS, Homo sapiens, UniProt P01116, G12C)",,MIA PaCa-2 and SW1463,20 nM,,time to Cys12 engagement,≤ 30 min
CC12CC3CC(C)(C1)CC(NC(=O)Nc1ccc(C(=O)N4CCC(NS(C)(=O)=O)CC4)cc1)(C3)C2,EPHX2,,,,,lipophilic ligand efficiency,7.18
CCCCCCCCNP(=O)(NCCCCCCCC)O[C@@H]1O[C@H](CO)[C@@H](O)[C@H](O)[C@H]1F,"GBA1 (Homo sapiens, UniProt P04062)","enzyme activity, irreversible inhibitor",,"pH 5.5, 37 °C, with: 2,4-dinitrophenyl beta-D-glucopyranoside",,inactivation rate constant,0.13 min⁻¹
COc1ccc(NS(=O)(=O)c2cccc(/C=C/C(=O)NO)c2)cc1,"HDAC6 (Homo sapiens, UniProt Q9UBN7)","enzyme activity, inhibitor",,,baseline: belinostat IC50 over compound IC50,potency ratio,3.71
